Assay results gathered from unrelated publications.
Every numbered part comes from another study and shows a few of its results, in no order. Several values in a cell are separate wells, animals, samples, runs or records.
UniProt P42336, sequence (whole entry, unmodified, looked up): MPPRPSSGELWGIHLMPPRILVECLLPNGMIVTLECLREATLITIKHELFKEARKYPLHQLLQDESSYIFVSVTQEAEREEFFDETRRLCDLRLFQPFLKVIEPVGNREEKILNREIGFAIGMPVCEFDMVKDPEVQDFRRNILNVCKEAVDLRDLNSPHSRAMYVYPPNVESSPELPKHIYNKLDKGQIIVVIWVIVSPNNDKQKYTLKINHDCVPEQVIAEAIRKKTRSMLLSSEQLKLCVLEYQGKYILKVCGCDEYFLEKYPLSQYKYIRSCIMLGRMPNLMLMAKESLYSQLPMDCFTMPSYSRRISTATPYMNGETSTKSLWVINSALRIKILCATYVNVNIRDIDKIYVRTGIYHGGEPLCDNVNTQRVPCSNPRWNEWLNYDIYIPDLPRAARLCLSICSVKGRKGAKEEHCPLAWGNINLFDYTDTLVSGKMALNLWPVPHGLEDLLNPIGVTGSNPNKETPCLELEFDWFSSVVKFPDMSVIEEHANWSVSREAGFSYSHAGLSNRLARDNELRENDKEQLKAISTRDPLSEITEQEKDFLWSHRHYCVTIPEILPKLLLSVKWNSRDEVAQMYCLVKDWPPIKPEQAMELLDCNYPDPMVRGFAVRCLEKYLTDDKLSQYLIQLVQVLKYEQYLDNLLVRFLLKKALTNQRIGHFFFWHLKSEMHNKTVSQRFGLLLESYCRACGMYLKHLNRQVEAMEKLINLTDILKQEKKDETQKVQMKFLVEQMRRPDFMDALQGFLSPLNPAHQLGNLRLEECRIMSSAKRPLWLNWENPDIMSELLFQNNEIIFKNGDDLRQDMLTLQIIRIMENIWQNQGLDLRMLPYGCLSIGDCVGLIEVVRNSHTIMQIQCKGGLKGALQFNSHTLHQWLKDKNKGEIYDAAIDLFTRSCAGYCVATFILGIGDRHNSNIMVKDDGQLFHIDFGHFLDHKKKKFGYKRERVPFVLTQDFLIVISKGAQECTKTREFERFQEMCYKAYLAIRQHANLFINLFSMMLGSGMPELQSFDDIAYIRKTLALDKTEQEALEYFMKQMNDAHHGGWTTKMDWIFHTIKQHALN
UniProt P11802, sequence (whole entry, looked up): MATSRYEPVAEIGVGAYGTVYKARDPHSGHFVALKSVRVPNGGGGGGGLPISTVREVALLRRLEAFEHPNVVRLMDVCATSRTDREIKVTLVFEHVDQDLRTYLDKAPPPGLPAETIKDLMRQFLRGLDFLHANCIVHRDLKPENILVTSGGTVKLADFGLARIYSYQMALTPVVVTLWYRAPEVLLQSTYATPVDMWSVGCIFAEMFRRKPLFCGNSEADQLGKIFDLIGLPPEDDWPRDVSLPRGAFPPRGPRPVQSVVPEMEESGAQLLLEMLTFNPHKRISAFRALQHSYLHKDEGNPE
UniProt Q9UEE5, sequence (whole entry, looked up): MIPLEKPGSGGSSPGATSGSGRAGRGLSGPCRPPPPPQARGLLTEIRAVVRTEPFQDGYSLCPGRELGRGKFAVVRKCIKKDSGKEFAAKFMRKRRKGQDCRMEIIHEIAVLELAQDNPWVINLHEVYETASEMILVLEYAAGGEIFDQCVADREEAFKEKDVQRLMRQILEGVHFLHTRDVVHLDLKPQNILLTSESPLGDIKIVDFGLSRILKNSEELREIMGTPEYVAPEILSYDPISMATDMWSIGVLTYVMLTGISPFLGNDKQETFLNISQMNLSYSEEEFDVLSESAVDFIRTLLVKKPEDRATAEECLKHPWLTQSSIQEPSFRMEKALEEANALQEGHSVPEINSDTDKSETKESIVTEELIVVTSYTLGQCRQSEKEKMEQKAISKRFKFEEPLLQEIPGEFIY
UniProt Q9UM73, sequence (whole entry, unmodified, looked up): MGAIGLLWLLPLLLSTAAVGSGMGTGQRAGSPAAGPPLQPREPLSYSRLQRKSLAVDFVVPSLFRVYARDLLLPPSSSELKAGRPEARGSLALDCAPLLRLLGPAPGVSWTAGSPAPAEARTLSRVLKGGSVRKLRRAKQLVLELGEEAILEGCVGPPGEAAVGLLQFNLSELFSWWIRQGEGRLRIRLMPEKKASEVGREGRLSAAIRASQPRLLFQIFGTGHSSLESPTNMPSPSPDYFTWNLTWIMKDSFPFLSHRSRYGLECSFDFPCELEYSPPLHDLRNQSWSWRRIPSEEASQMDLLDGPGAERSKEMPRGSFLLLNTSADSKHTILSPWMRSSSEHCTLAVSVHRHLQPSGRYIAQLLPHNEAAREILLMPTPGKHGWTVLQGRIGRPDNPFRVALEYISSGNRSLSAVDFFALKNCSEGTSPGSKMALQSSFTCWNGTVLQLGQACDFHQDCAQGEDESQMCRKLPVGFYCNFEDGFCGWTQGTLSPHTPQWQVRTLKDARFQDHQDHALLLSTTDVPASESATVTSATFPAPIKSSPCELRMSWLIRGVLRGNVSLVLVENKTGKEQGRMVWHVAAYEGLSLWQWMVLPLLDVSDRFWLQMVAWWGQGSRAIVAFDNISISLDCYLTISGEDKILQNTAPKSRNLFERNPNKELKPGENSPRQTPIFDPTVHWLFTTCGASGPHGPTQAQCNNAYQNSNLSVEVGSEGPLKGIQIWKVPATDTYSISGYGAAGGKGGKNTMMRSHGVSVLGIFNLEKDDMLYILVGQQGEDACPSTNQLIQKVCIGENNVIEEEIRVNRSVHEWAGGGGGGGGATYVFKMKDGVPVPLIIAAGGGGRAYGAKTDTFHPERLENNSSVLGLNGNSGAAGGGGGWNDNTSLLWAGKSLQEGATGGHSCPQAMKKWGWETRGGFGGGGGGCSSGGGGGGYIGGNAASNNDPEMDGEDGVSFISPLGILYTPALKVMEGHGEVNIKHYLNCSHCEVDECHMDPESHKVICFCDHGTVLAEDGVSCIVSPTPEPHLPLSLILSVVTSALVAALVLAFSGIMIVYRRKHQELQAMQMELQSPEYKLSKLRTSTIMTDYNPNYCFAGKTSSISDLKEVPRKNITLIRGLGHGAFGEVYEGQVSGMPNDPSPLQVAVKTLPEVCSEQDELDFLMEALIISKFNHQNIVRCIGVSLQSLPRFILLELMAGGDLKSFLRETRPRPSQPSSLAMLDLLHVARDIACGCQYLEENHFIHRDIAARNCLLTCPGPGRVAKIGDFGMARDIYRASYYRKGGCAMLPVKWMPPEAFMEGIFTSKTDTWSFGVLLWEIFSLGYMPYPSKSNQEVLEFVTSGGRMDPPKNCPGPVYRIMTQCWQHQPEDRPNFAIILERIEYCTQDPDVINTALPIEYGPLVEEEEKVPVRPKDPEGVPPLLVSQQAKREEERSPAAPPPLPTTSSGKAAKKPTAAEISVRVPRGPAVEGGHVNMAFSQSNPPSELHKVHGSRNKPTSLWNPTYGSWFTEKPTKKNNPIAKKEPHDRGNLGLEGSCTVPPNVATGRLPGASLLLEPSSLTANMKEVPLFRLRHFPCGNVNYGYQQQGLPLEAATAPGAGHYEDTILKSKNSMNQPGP
UniProt Q8IYT8, sequence (whole entry, looked up): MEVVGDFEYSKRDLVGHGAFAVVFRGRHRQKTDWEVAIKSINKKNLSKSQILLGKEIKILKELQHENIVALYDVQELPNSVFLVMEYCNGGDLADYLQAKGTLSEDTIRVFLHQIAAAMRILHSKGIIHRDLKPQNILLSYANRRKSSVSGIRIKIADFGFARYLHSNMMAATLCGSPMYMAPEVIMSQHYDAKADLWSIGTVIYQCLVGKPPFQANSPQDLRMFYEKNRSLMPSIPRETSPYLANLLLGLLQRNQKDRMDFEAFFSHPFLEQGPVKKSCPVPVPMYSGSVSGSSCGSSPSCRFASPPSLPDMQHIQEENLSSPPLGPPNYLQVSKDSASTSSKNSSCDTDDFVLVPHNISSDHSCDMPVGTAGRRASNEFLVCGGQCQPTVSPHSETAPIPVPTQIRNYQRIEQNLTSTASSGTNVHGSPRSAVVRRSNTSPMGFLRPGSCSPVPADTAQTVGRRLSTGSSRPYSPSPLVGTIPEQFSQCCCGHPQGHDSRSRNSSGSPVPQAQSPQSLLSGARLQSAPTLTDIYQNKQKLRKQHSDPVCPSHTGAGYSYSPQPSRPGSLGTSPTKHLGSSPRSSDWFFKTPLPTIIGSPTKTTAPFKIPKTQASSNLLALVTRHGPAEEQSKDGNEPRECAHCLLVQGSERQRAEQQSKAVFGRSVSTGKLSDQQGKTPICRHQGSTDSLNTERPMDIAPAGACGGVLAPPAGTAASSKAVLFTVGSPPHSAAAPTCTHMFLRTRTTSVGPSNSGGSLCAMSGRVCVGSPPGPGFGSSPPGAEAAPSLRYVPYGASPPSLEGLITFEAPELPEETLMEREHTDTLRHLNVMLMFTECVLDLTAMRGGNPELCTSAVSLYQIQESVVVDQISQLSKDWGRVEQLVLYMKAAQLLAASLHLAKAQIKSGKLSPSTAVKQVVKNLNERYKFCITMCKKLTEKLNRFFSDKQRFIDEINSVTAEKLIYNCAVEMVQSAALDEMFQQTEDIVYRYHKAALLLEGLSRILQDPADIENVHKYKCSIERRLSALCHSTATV
UniProt P36897, sequence (whole entry, looked up): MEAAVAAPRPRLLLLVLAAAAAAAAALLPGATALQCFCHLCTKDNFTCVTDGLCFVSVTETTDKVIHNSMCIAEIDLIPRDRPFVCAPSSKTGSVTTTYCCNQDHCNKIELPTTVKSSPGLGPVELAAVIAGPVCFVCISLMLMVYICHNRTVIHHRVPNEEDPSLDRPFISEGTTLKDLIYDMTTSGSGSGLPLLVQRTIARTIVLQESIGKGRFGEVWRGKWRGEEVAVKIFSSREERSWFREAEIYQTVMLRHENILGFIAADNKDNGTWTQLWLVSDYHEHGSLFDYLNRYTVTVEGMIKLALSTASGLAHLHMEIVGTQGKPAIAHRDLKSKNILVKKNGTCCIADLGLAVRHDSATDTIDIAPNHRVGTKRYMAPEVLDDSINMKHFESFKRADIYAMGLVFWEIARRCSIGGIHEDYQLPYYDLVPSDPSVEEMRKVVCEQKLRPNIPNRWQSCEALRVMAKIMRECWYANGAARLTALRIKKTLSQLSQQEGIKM

Series 1
Compound: c1ccc(N2CCN(Cc3nc4ccccc4[nH]3)CC2)nc1
Concentration: 1 µM
| target | assay | remaining binding |
| --- | --- | --- |
| FLT3 (Homo sapiens, UniProt P36888, F691L/ITD) | binding, competition with immobilised ligand | 100% |
| IKBKE (Homo sapiens, UniProt Q14164) | binding, competition with immobilised ligand | 100% |
| Tyrosine-protein kinase ABL1, non-phosphorylated (ABL1, Homo sapiens, UniProt P00519, H396P) | binding, competition with immobilised ligand | 87% |
| DSTYK (Homo sapiens, UniProt Q6XUX3) | binding, competition with immobilised ligand | 100% |
| PRKCE (Homo sapiens, UniProt Q02156) | cell-free assay, competition with immobilised ligand | 100% |
| WEE1 (Homo sapiens, UniProt P30291) | binding, competition with immobilised ligand | 100% |
| TRPM6 (Homo sapiens, UniProt Q9BX84) | cell-free assay, competition with immobilised ligand | 100% |
| CDC42BPG (Homo sapiens, UniProt Q6DT37) | competition binding | 100% |
| PDGFRA (Homo sapiens, UniProt P16234) | cell-free assay, competition with immobilised ligand | 100% |
| ULK2 (Homo sapiens, UniProt Q8IYT8) | binding, competition with immobilised ligand | 100% |
| DYRK2 (Homo sapiens, UniProt Q92630) | binding, competition with immobilised ligand | 100% |
| GRK3 (Homo sapiens, UniProt P35626) | binding, competition with immobilised ligand | 67% |
| KIT (Homo sapiens, UniProt P10721, D816V) | binding, competition with immobilised ligand | 100% |
| PIK3CA (Homo sapiens, UniProt P42336, M1043I) | cell-free assay, competition with immobilised ligand | 87% |
| PIK3CA (Homo sapiens, UniProt P42336, I800L) | cell-free assay, competition with immobilised ligand | 78% |
| MAP4K1 (Homo sapiens, UniProt Q92918) | binding, competition with immobilised ligand | 100% |
| TGFBR1 (Homo sapiens, UniProt P36897) | cell-free assay, competition with immobilised ligand | 97% |
| BRSK2 (Homo sapiens, UniProt Q8IWQ3) | binding, competition with immobilised ligand | 100% |
| RIOK3 (Homo sapiens, UniProt O14730) | binding, competition with immobilised ligand | 100% |
| ALK (Homo sapiens, UniProt Q9UM73, L1196M) | cell-free assay, competition with immobilised ligand | 97% |
| Tyrosine-protein kinase ABL1, phosphorylated (ABL1, Homo sapiens, UniProt P00519, M351T) | binding, competition with immobilised ligand | 100% |
| PRKAA1 (Homo sapiens, UniProt Q13131) | cell-free assay, competition with immobilised ligand | 100% |
| ACVRL1 (Homo sapiens, UniProt P37023) | binding, competition with immobilised ligand | 95% |
| NTRK3 (Homo sapiens, UniProt Q16288) | cell-free assay, competition with immobilised ligand | 87% |
| Cyclin-dependent kinase 4, with cyclin D1 (CDK4, Homo sapiens, UniProt P11802) | binding, competition with immobilised ligand | 100% |

Series 2
Compound: CN(C)CCCn1cc(C2=C(c3c[nH]c4ccccc34)C(=O)NC2=O)c2ccccc21
Read-out: enzyme activity
Mode: inhibitor
Concentration: 0.5 µM
Reference: control
| target | remaining activity |
| --- | --- |
| AXL (Homo sapiens, UniProt P30530) | 100% |
| Cyclin-dependent kinase 1, with cyclin B (CDK1, Homo sapiens, UniProt P06493) | 92% |
| MAPKAPK3 (Homo sapiens, UniProt Q16644) | 95.3% |
| STK17A (Homo sapiens, UniProt Q9UEE5) | 86.9% |
| RPS6KA6 (Homo sapiens, UniProt Q9UK32) | 3.97% |
| PDPK1 (Homo sapiens, UniProt O15530) | 83.3% |
| TSSK2 (Homo sapiens, UniProt Q96PF2) | 97.3% |
| MAP4K4 (Homo sapiens, UniProt O95819) | 55.9% |
| HIPK2 (Homo sapiens, UniProt Q9H2X6) | 77.5% |
| CAMK2B (Homo sapiens, UniProt Q13554) | 74.5% |
| PHKG1 (Homo sapiens, UniProt Q16816) | 31.9% |

Series 3
Cell line: mouse MPNST tumor cells
Method: high-content immunofluorescence imaging
Refers to: nuclear SOX9
Concentration: 10 µM
Time: 12 h
Setting: mean of 2 replicates
Reference: DMSO control
Reading: higher = more nuclear SOX9
| SMILES | nuclear SOX9 intensity |
| --- | --- |
| Cc1ccc2c(c1CCC(=O)O)CC[C@@H](NS(=O)(=O)c1ccc(Cl)cc1)C2 | 132 % of DMSO |
| CC(=O)N(CC(C)C(=O)O)c1c(I)cc(I)c(N)c1I (stereo not drawn) | 96.5 % of DMSO |
| CN(C)CCCO[C@@H]1[C@H]2OC(C)(C)O[C@H]2O[C@@H]1[C@H](O)CO | 78.7 % of DMSO |
| Cc1cccc2c1CC[C@H](CN1CCC(c3c(Cl)cccc3Cl)CC1)C[C@@H]2O | 182 % of DMSO |
| Nc1ccc(-c2nc3cc(Oc4ccc(Oc5ccc6[nH]c(-c7ccc(N)cc7)nc6c5)cc4)ccc3[nH]2)cc1 | 211 % of DMSO |
| CC(C)(C(=O)c1cccnc1)c1cccnc1 | 97.8 % of DMSO and 94 % of DMSO |
| CCCCCN(CCCCC)C(=O)C(CCC(=O)O)NC(=O)c1ccc(Cl)c(Cl)c1 (stereo not drawn) | 99.8 % of DMSO |
| COc1cc2c(cc1OCCCN1CCCC1)N=C(N)C21CCC1 | 131 % of DMSO and 145 % of DMSO |
| COc1cc(C(C)=O)ccc1O | 97.6 % of DMSO |
| CN1C2CCCC1CC(NC(=O)c1nn(C)c3ccccc13)C2 (stereo not drawn) | 103 % of DMSO |

Series 4
SMILES: CC(=O)N[C@@H](Cc1c[nH]c2ccccc12)C(=O)N[C@@H](CCC(=O)C=[N+]=[N-])C(=O)OC(C)C
Sample: EL4 tumour
| assay | test system | conditions | scale | fold change |
| --- | --- | --- | --- | --- |
| metabolomics, refers to: N-acetylaspartate | mouse | dose not given | reference: vehicle | 3.29 |
| refers to: 1-methylguanidine | mouse, EL4 tumour-bearing | dose not given | reference: vehicle | 6.06 |
| refers to: anserine | mouse, EL4 tumour-bearing | dose not given | reference: vehicle | 3.64 |
| metabolomics, refers to: thiamin monophosphate | mouse | subcutaneous, 0.3 mg/kg DON equivalent, 120 h, dosed for 5 days | reference: vehicle | 2.13 |
| metabolomics, refers to: 2-hydroxy-4-(methylthio)butanoic acid | mouse | dose not given | reference: vehicle | 0.395 |
| refers to: catechol sulfate | Mus musculus | dose not given | reference: over vehicle | 2.09 |
| refers to: quinate | mouse, EL4 tumour-bearing | dose not given | reference: vehicle | 6.53 |
| metabolomics, refers to: 2,3-dihydroxy-2-methylbutyrate | mouse | dose not given | reference: vehicle | 0.438 |
| metabolomics, refers to: uridine 2'-monophosphate | mouse | dose not given | reference: vehicle | 2.43 |
| refers to: 4-methyl-2-oxopentanoate | mouse, EL4 tumour-bearing | dose not given | reference: vehicle | 2.73 |
| refers to: 5-methylcytidine | mouse, EL4 tumour-bearing | dose not given | reference: vehicle | 0.467 |

Some of these lines once more (series 1):
| target | assay | remaining binding |
| --- | --- | --- |
| TGFBR1 (Homo sapiens, UniProt P36897) | cell-free assay, competition with immobilised ligand | 97% |
| BRSK2 (Homo sapiens, UniProt Q8IWQ3) | binding, competition with immobilised ligand | 100% |
| RIOK3 (Homo sapiens, UniProt O14730) | binding, competition with immobilised ligand | 100% |
| ALK (Homo sapiens, UniProt Q9UM73, L1196M) | cell-free assay, competition with immobilised ligand | 97% |
| Tyrosine-protein kinase ABL1, phosphorylated (ABL1, Homo sapiens, UniProt P00519, M351T) | binding, competition with immobilised ligand | 100% |
| PRKAA1 (Homo sapiens, UniProt Q13131) | cell-free assay, competition with immobilised ligand | 100% |
| ACVRL1 (Homo sapiens, UniProt P37023) | binding, competition with immobilised ligand | 95% |
